Published values of several laboratories.
Numbered parts are unrelated; each lists some results of a single study. Changes are numbered by the printed parent chain.

Sample 1
Target: CCNB1, cyclin fold, Cln2 fusion (human)
Technique: yeast growth competition, sequencing
Sample: yeast
Notes: weak parent motif
Relative to: not given
Reading: higher = stronger binding
Parent: SCAPER docking peptide (human); SNARRSLNFGGST
Substitution | normalised enrichment score
SNARRSLNFGFST [G11F] | -0.03
PNARRSLNFGGST [S1P] | 0.131
SNGRRSLNFGGST [A3G] | 0.419
SEARRSLNFGGST [N2E] | 0.0064

Sample 2
Target: Interferon regulatory factor 5, full length, phosphomimetic (IRF5, Homo sapiens, UniProt Q13568-2, residues 1-514, K96S/S451D/S453D/S456D/S462D)
Technique: protein-binding microarray
Molecule type: double-stranded DNA, one strand shown
Sample: in vitro
Concentration: 250 nM
Notes: 60-bp whole probe
Together with: salmon DNA 0.4 mg/ml
Relative to: random background probes
Reading: higher = stronger binding
Oligonucleotide | log fluorescence [z-score]
GCCTAGCACTTAGATTTCACTCTCGATTAGTGCTAGGTCTTGATTCGCTTGACGCTGCTG | 3.86
GCCTAGCACTCACTTTCCATTTCTGTTACTGTGCTAGTCTTGATTCGCTTGACGCTGCTG | 4.8
GCCTAGCACTTAGGACTGGAGTTTCGGTTAGTGCTAGTCTTGATTCGCTTGACGCTGCTG | 9.26
GCCTAGCACTCACATATGTTTTTCATACTGTGCTAGGTCTTGATTCGCTTGACGCTGCTG | 0.872

Sample 3
Target: Phosphate system positive regulatory protein PHO4, full length, GST-tagged (PHO4, Saccharomyces cerevisiae, UniProt P07270, residues 1-312)
Technique: competition protein-binding microarray
Molecule type: double-stranded DNA, one strand shown
Sample: in vitro
Concentration: 2 µM
Notes: whole 60-bp probe, lowest competitor level
Together with: Cbf1 competitor, 0.05 µM
Reading: higher = stronger binding
Target sequence (chain): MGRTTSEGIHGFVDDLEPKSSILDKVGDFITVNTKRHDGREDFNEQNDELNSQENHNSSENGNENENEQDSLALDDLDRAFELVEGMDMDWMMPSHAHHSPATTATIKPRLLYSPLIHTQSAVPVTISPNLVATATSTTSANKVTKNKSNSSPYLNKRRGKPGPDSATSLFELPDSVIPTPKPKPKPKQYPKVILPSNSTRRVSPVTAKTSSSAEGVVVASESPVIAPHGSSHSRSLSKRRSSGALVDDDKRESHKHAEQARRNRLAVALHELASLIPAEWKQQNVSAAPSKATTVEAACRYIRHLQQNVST
Oligonucleotide | fluorescence intensity
CTAACGAAGGTTTTTCACGTGGCCTACAAGCCAAGTGTCTTGATTCGCTTGACGCTGCTG | 13100 a.u.
GGCACTAGTTTGTGTCCCGTGGTGATTGCTGTATAAGTCTTGATTCGCTTGACGCTGCTG | 8200 a.u.
CTTTCCCGATCTTGAAGGGTGGGTGTAGCACATTTGGTCTTGATTCGCTTGACGCTGCTG | 4740 a.u.
ATTGGGCCATCAGCAGACGTGGCCTTGGCTGGACGCGTCTTGATTCGCTTGACGCTGCTG | 3690 a.u.

Other studies, line by line
Substance | target | test | test system | conditions | scale | measurement | result
PhoQ, residues 284 288 289 292 302 303 TLASMF | PhoP, residues 12 14 15 18 19 GQAIL (Escherichia coli, UniProt P23836) | Sort-seq, refers to: YFP reporter | E. coli | PhoQ-PhoP variant library, together with: 10 µM Mg2+ | relative to: high Mg2+ state, higher = stronger signaling | fold induction | 13.5

For quick reference, copied from above (sample 3):
Oligonucleotide | fluorescence intensity
ATTGGGCCATCAGCAGACGTGGCCTTGGCTGGACGCGTCTTGATTCGCTTGACGCTGCTG | 3690 a.u.
GGCACTAGTTTGTGTCCCGTGGTGATTGCTGTATAAGTCTTGATTCGCTTGACGCTGCTG | 8200 a.u.
